Measurements gathered from unrelated publications.
Several values in a cell are separate wells, animals, samples, runs or records. Numbers after ± are the reported error.

For `Clc1ccc(C2(c3ccc(-c4cn[nH]c4)cc3)CCNCC2)cc1`, the pERK level was 457 (CLL cells, patient; flow cytometry, MFI; human; 0.01 µM, 24 h).
With `CCn1cc(-c2cc(Cn3ccoc3=N)cc3c2CCN([C@@H](C)c2cc(OC)ccn2)C3=O)c(C(F)(F)F)n1` the EC50 was 0.429 µM (RERF-LC-Ad2; cell growth, inhibitor; 120 h).
The growth percent of `CSc1nc(-c2ccc(Cl)cc2)c2c(NC(=O)c3ccccc3)nnc-2[nH]1` is reported as 95.3% (786-0; NCI60 SRB; 10 µM).
The log ratio of `CC/C(=N\NC(=O)NCc1cccc(O)c1)c1ccc(O)c(C)c1O` is reported as 4.85 (SK-OV-3; gene expression, microarray, item: CYR61; 10 µM, 24 h; baseline: DMSO).
Under “fitted top MyBP-C level”, `C=C1C(=O)O[C@@H]2/C=C(\C)CC/C=C(\C)CC[C@@H]12` is recorded as 104% (iPSC-derived cardiomyocytes; concentration-response fit; concentration not given; baseline: vehicle).
`O=c1oc2c(O)c(O)cc3c(=O)oc4c(O)c(O)cc1c4c23` gave a viability of 94.5% (OCI-Ly1; 0.1 µM, 120 h).
For `O=C(/C=C/C=C/C=C/C1CCCCC1)NC1=C[C@@](O)(/C=C/C=C/C=C/C(=O)NC2=C(O)CCC2=O)[C@@H]2O[C@@H]2C1=O`, the GI50 was 26.5 µM (TE-11; cell growth, CellTiter-Glo; 78 h).
For `NC(=O)c1cccc(NC(=O)/C=C/c2c[nH]c3ccccc23)c1`, the viability was 112% (OCI-Ly1; 0.1 µM, 120 h).
`COc1cc2ncnc(Nc3ccc(Oc4ccccc4)cc3C)c2cc1OC.O=C(O)C(F)(F)F` gave a fractional effect of 0.379 and 0.397 (COLO 205 (BRAF V600E); 3 µM, with: trametinib 0 nM).
The fold change of `Cn1c(Nc2nc3ccc(C(F)(F)F)cc3s2)nc2cc(C(=O)NCCOCCO)ccc21` is reported as 2.81 (SH-SY5Y; RNA-seq, item: FAM83G mRNA; 5 µM, 5 h; baseline: untreated cells).
`COc1cnc2cccc(N3CCc4c(cc(Cn5ccnc5C)cc4-c4cn(C)nc4C(F)(F)F)C3=O)c2c1` has an EC50 of 0.0119 µM (G-361; cell growth, inhibitor; 120 h).
`C=CCNC1=C2C[C@@H](C)C[C@H](OC)[C@H](O)[C@@H](C)/C=C(\C)[C@H](OC(N)=O)[C@@H](OC)/C=C\C=C(/C)C(=O)NC(=CC1=O)C2=O`: “fitted bottom MyBP-C/MYH ratio” 33.1% (iPSC-derived cardiomyocytes; concentration-response fit; baseline: vehicle).
With `COc1cc(/C=C/C(=O)N2CCC=CC2=O)cc(OC)c1OC` the mRNA level was 129 ± 18.3% (MDA-MB-468; quantitative RT-PCR, item: GGT5; 30 µM, 8 h; baseline: untreated cells).
`Cc1nc(NC(=O)N2CCC[C@H]2C(N)=O)sc1-c1ccnc(C(C)(C)C(F)(F)F)c1` has a GR50 of 516 nM (HCC1954; resazurin growth rate inhibition; 72 h).
The EC50 of `CCn1cc(-c2cc(Cn3ccnc3)cc3c2CCN([C@H](c2cc(OC)ccn2)C2CC2)C3=O)c(C(F)(F)F)n1` is reported as over 30 µM (KMS-11; cell growth, inhibitor; 120 h).
`CCc1cnc(N2CCC(c3nc(COc4ccc(-n5cnnn5)cc4)cs3)CC2)nc1`: “normalized enrichment score” -1.28 (HEK-293T; RNA-seq GSEA, item: Hallmark allograft rejection; concentration not given; direction not given).
`Cc1cc(Nc2ncc(Cl)c(Nc3ccccc3S(=O)(=O)C(C)C)n2)c(OC(C)C)cc1C1CCNCC1`: “log2 fold change” -3.08 (CLB-BAR; phosphoproteomics LC-MS/MS, item: SOS1 phosphorylation; 200 nM, 60 min; baseline: untreated).
For `C=C1C(=O)O[C@H]2[C@H]1[C@H](OC(=O)/C(C)=C\C)CC(=C)[C@@H]1[C@H](O)[C@H]3O[C@@]3(C)[C@@]12O`, “fitted top MyBP-C level” read 85% (iPSC-derived cardiomyocytes; concentration-response fit; concentration not given; baseline: vehicle).
`CC(C)NCC(O)c1ccc(O)c(O)c1` (centres unmarked) has a sarcomere length of 1.8 µm (mouse ventricular cardiomyocytes; dose not given, 0.275 s).
The growth percent of `CCCN1CCN(c2ccc3[nH]c(-c4ccc5[nH]c(-c6cc(OC)c(OC)c(OC)c6)nc5c4)nc3c2)CC1` is reported as 77.3% (786-0; cell growth, NCI-60 SRB; 10 µM, 48 h).
For `C=CC(=O)N1CCC[C@@H](n2nc(-c3ccc(Oc4ccccc4)cc3)c3c(N)ncnc32)C1`, the GI50 was 16.3 µM (REC-IKZF1^KO; cell growth; 72 h).
For `Fc1ccc(CNc2ccc3nc(COCc4ccccc4)[nH]c3c2)cc1`, the viability was 140 ± 4.04% (sample A patient iPSC-derived NPCs; MTS; 10 µM, 24 h; baseline: vehicle).
`Nc1cccc2c1C(=O)N(C1CCC(=O)NC1=O)C2=O` (centres unmarked) — result for “surface marker level”: 45.2% (RPMI-8226; flow cytometry, item: CD27; concentration not given; baseline: comparator compound alone).
`Nc1ncnc2c1ncn2[C@@H]1O[C@H](CO)[C@@H](O)[C@H]1O` — result for “T cell proliferation”: 68.7 a.u. and 62.8 a.u. and 63.6 a.u. (activated human T cells; 100 nM; higher = more proliferation).
`Cc1ncsc1-c1ccc([C@H](C)NC(=O)[C@H]2C[C@H](O)CN2C(=O)[C@@H](NC(=O)CCCCCCCCCNC(=O)c2ccc3c(c2)[C@H](NC(=O)c2cc(-c4ccc(C(=O)N(C)C)c(O)c4)on2)CC3)C(C)(C)C)cc1` — result for “log2 fold change”: -0.32 (MV4-11; TMT proteomics, item: ATP9A/ATP9B protein; concentration not given, 6 h; baseline: DMSO).
`[Cl-].[Cl-].[Ru+2].c1cnc2c(c1)ccc1cccnc12.c1cnc2c(c1)ccc1cccnc12.c1csc(-c2ccc(-c3ccc(-c4nc5c6cccnc6c6ncccc6c5[nH]4)s3)s2)c1` gave a phototherapeutic index of 1600 (SK-MEL-28; normoxia, with: visible light).
For `Cc1nc2ccc(NCc3ccc(C(F)(F)F)cc3)cc2[nH]1`, the viability was 124 ± 18.1% (sample A patient iPSC-derived NPCs; MTS; 10 µM, 24 h; baseline: vehicle).
With `Cc1cc(/N=N/c2ccc(S(=O)(=O)Nc3ccccn3)cc2)c(N)cc1O` the viability was 120% (OCI-Ly1; 1 µM, 120 h).
`Cc1cccc(-c2[nH]c(CNc3ccccc3F)nc2-c2ccc3ncnn3c2)n1` has an XTT absorbance of 3.8 E-1 and 6.2 E-1 and 3.9 E-1 (pomalidomide-resistant MM1.S cells; XTT; 0.75 µM; higher = more viable cells).
For `O=C(COc1cccc2c1C(=O)N(C1CCC(=O)NC1=O)C2=O)NCCOCCOCCNS(=O)(=O)Nc1cccc(-c2cn3cc(C(=O)NC4CCC4)ccc3n2)c1` (centres unmarked), “log2 fold change” read 0.014 (MV4-11; TMT proteomics, item: NAA38 protein; 10 µM, 16 h; baseline: DMSO).
For `CC(C)C[C@H](NP(=O)(O)O[C@@H]1O[C@@H](C)[C@H](O)[C@@H](O)[C@H]1O)C(=O)N[C@@H](Cc1c[nH]c2ccccc12)C(=O)O`, the Aβ40 level was about 26% (SH-SY5Y BACE1-overexpressing; ELISA; supernatant; 10 µM, 72 h; baseline: vehicle).
`Cn1cc(Nc2nccc(-c3ccc4c(c3)CN(C3COC3)CC[C@H]4NC(=O)c3cn(C(C)(C)C)nn3)n2)cn1`: “pathway activation z-score” -0.365 (mouse splenic B cells; item: Necroptosis signalling pathway; 30 mg/kg, IgD-activated in vivo; baseline: vehicle, direction not given).
`C=C1C(=O)O[C@@H]2C[C@@]3(C)CCC[C@H](C)C3=C[C@H]12`: “fitted top MyBP-C level” 89% (iPSC-derived cardiomyocytes; concentration-response fit; concentration not given; baseline: vehicle).
Under “log2 fold change”, `Cn1cc(-c2ccc(-c3cncc(Cl)c3N3CCC4(CCNC4=O)CC3)cc2)cn1` is recorded as 1.98 (COLO 205; gene expression, microarray, item: FGFR3 mRNA; concentration not given, 6 h; baseline: untreated cells).
`NC(=O)c1cccc(N)c1` gave a viability of 82.9% (OCI-Ly1; 0.1 µM, 120 h).
For `C[C@H](CCC(=O)NCCS(=O)(=O)O)[C@H]1CC[C@H]2[C@@H]3CC[C@@H]4C[C@H](O)CC[C@]4(C)[C@H]3CC[C@]12C`, the proliferation increase was 62% (rat PCK cystic cholangiocytes; cell confluence; 20 µM, 48 h; baseline: untreated).
`O=C(NO)c1cccc(C(=O)NCCc2ccccc2)c1` gave a viability of 200% (OCI-Ly1; 0.1 µM, 120 h).
Under “mean neuron degeneration”, `C=CC(=O)N1[C@@H](c2ccc3c(c2)OCO3)c2[nH]c3ccccc3c2C[C@H]1C(=O)NC` is recorded as 90% (rat DRG neurons; 0.004572 µM, 48 h, with: vincristine 40 nM).
For `Nc1ncnc2c1ncn2[C@@H]1C=C(CO)[C@@H](O)[C@H]1O`, the viability was 9.73% (OCI-Ly1; 0.1 µM, 120 h).
For `c1ccc2cc(Cn3cc[n+](Cc4ccc5ccccc5c4)c3)ccc2c1`, the GI50 was at most 8.4 µM (NCI60 NSCLC cell lines; cell growth).
`CCCCc1nc(Cl)c(CO)n1Cc1ccc(-c2ccccc2-c2nn[nH]n2)cc1` — result for “log2 fold change”: 1.8 (human PBMC; RNA-seq, item: AK4 mRNA; 10 µg/mL, 24 h; baseline: untreated control).
For `CCCCN1C[C@H](O)[C@@H](O)[C@@H](O)[C@H]1CO`, the IC50 was 11.7 µM (sample B patient fibroblasts; Gb3 level lowering, LC-MS/MS, item: Gb3 d18:1/24:1; 216 h).
`CC(C)[C@H](N)C(=O)N1CCC[C@H]1B(O)O` — result for “late apoptotic cells”: 30.9% (MV4-11; annexin V/PI flow cytometry, item: annexin V+ PI+; 2 µM, 24 h).
With `CCCC(CCC)C(=O)O` the viability was 177% (OCI-Ly1; 0.5 µM, 120 h).
With `COc1ccc(-n2nc(C(C)=O)s/c2=N\N=C(/C)c2ccc(NC(=O)c3ccccc3)cc2)cc1` the toxicity was 95% (MCF7; 0.312 µM).
`COc1cc(NC(C)CCCN)c2ncccc2c1` (centres unmarked): “fitted bottom MyBP-C level” 0% (iPSC-derived cardiomyocytes; concentration-response fit; concentration not given; baseline: vehicle).
`O=C(O)c1ccnc(C(=O)O)c1` gave a viability of 195% (OCI-Ly1; 0.1 µM, 120 h).

A few entries again:
For `O=C(COc1cccc2c1C(=O)N(C1CCC(=O)NC1=O)C2=O)NCCOCCOCCNS(=O)(=O)Nc1cccc(-c2cn3cc(C(=O)NC4CCC4)ccc3n2)c1` (centres unmarked), “log2 fold change” read 0.014 (MV4-11; TMT proteomics, item: NAA38 protein; 10 µM, 16 h; baseline: DMSO).
`CC(C)[C@H](N)C(=O)N1CCC[C@H]1B(O)O` — result for “late apoptotic cells”: 30.9% (MV4-11; annexin V/PI flow cytometry, item: annexin V+ PI+; 2 µM, 24 h).
`CCCCc1nc(Cl)c(CO)n1Cc1ccc(-c2ccccc2-c2nn[nH]n2)cc1` — result for “log2 fold change”: 1.8 (human PBMC; RNA-seq, item: AK4 mRNA; 10 µg/mL, 24 h; baseline: untreated control).
For `C[C@H](CCC(=O)NCCS(=O)(=O)O)[C@H]1CC[C@H]2[C@@H]3CC[C@@H]4C[C@H](O)CC[C@]4(C)[C@H]3CC[C@]12C`, the proliferation increase was 62% (rat PCK cystic cholangiocytes; cell confluence; 20 µM, 48 h; baseline: untreated).
